Measured values gathered from unrelated publications.
Lines come from different studies, so protocols differ. ± marks the error that the study gave.

CCc1c2c(nc3ccc(OC4OC(C(=O)O)C(O)C(O)C4O)cc13)-c1cc3c(c(=O)n1C2)COC(=O)C3(O)CC (centres unmarked)  Tmax (human patients, plasma; intravenous, 100 mg/m^2 of parent drug): 442 min
C[C@@H]1CC[C@H]2[C@@H](C)CO[C@@H]3O[C@@]4(C)CC[C@@H]1[C@]32OO4  Tmax (male Sprague-Dawley rat, plasma; oral, 100 mg/kg): 8.34 min
CC(C)[C@H](N)C(=O)N[C@@H](Cc1ccc(O)cc1)C(=O)N[C@@H](CCCCN)C(=O)N[C@H](C(=O)N[C@@H](CCCCN)C(=O)N[C@H](C(=O)N[C@@H](CCCCN)C(=O)N[C@H](C(=O)N[C@@H](CCCCN)C(=O)N[C@H](C(=O)N[C@@H](CCCCN)C(=O)N[C@H](C(=O)N[C@@H](CCCCN)C(=O)N[C@H](C(=O)N[C@@H](CCCCN)C(=O)N[C@H](C(=O)N[C@@H](CCCCN)C(=O)N[C@H](C(=O)O)[C@@H](C)O)C(C)C)[C@@H](C)O)C(C)C)[C@@H](C)O)C(C)C)[C@@H](C)O)C(C)C  kd1 (binding, SPR two-state model; rVλ6Wil fibrils; 300 nM): 0.026 s⁻¹
CC(=CCC(O)C(C)=Cc1csc(C)n1)CC=CC(C)C(O)C(C)C(=O)C(C)(C)C(O)CC(=O)O (centres unmarked)  Tmax (human, plasma; intravenous infusion, 42 mg/m2 KOS-1584, 3 h infusion, cycle 1): 200 ± 16.2 min
CC(C)C[C@@H](NC(=O)[C@@H](Cc1ccccc1)NC(=O)[C@H](N)Cc1ccccc1)C(=O)N[C@H](CCCCN)C(=O)N1CCC(N)(C(=O)O)CC1  Tmax (human, plasma; intravenous, 5 and 15 µg/kg): ~5 min
CCCCCCCC/C=C\CCCCCCCCOP(O)(O)=S.N  Tmax (mouse, female, nonirradiated; sc, dose not given): 60 min
N=C(N)NCCC[C@@H]1NC(=O)[C@H](CCCCNC(=O)CCOCCOCCOCCOCCNC(=O)CN2CCN(CC(=O)O)CCN(CC(=O)O)CCN(CC(=O)O)CC2)NC(=O)[C@@H](Cc2ccccc2)NC(=O)[C@H](CC(=O)O)NC(=O)CNC1=O [indium-111 labelled]  tissue uptake (athymic nude mice, female, U-87 MG glioma xenograft, spleen; intravenous, 3 µCi, 24 h): 0.63 ± 0.11 %ID/g
C(#Cc1cncc(OC[C@@H]2CCN2)c1)c1ccccc1  Tmax (male Sprague-Dawley rat, plasma; oral, 75 mg/kg): 55.2 min
N#CC1(c2ccc3c(N)ncnn23)OC(COP(=O)(O)OP(=O)(O)OP(=O)(O)O)C(O)C1O (centres unmarked)  Tmax (LC-MS/MS; CD-1 mouse male, lung; oral, 100 mg/kg of remdesivir): 60 min
CC(C)C[C@@H](N)C(=O)NCC(=O)N[C@H](C)C(=O)N[C@H](CO)C(=O)N[C@H](Cc1c[nH]c2ccccc12)C(=O)N[C@H](Cc1c[nH]cn1)C(=O)N[C@H](CCCNC(=N)N)C(=O)N1CCC[C@@H]1C(=O)N[C@H](CC(=O)O)C(=O)N[C@H](CCCCN)C(=O)N[C@H](CS)C(=O)N[C@H](CS)C(=O)N[C@H](CC(C)C)C(=O)NCC(=O)N[C@H](Cc1ccc(O)cc1)C(=O)N[C@H](CCC(N)=O)C(=O)N[C@H](CCCCN)C(=O)N[C@H](CCCNC(=N)N)C(=O)N1CCC[C@@H]1C(=O)N[C@H](CC(C)C)C(=O)N1CCC[C@@H]1C(N)=O  Tmax (male Sprague-Dawley rat, plasma; subcutaneous, 10 mg/kg, single dose): 49.8 min
N=C(N)NCCC[C@@H]1NC(=O)[C@H](CCCCNC(=O)CC[C@H](NC(=O)CCOCCOCCOCCOCCNC(=O)CN2CCN(CC(=O)O)CCN(CC(=O)O)CCN(CC(=O)O)CC2)C(=O)NCCCC[C@@H]2NC(=O)[C@@H](Cc3ccccc3)NC(=O)[C@H](CC(=O)O)NC(=O)CNC(=O)[C@H](CCCNC(=N)N)NC2=O)NC(=O)[C@@H](Cc2ccccc2)NC(=O)[C@H](CC(=O)O)NC(=O)CNC1=O [indium-111 labelled]  tissue uptake (female athymic nude mice, liver; intravenous, 3 µCi, 24 h, U-87 MG glioma xenograft): 1.51 ± 0.57 %ID/g

For quick reference, copied from above:
CC(C)[C@H](N)C(=O)N[C@@H](Cc1ccc(O)cc1)C(=O)N[C@@H](CCCCN)C(=O)N[C@H](C(=O)N[C@@H](CCCCN)C(=O)N[C@H](C(=O)N[C@@H](CCCCN)C(=O)N[C@H](C(=O)N[C@@H](CCCCN)C(=O)N[C@H](C(=O)N[C@@H](CCCCN)C(=O)N[C@H](C(=O)N[C@@H](CCCCN)C(=O)N[C@H](C(=O)N[C@@H](CCCCN)C(=O)N[C@H](C(=O)N[C@@H](CCCCN)C(=O)N[C@H](C(=O)O)[C@@H](C)O)C(C)C)[C@@H](C)O)C(C)C)[C@@H](C)O)C(C)C)[C@@H](C)O)C(C)C  kd1 (binding, SPR two-state model; rVλ6Wil fibrils; 300 nM): 0.026 s⁻¹
CC(=CCC(O)C(C)=Cc1csc(C)n1)CC=CC(C)C(O)C(C)C(=O)C(C)(C)C(O)CC(=O)O (centres unmarked)  Tmax (human, plasma; intravenous infusion, 42 mg/m2 KOS-1584, 3 h infusion, cycle 1): 200 ± 16.2 min
